Measurements from different studies.
A part holds a random share of what one study measured.

Set 1 — method: protein-binding microarray; molecule type: double-stranded DNA, one strand shown; sample: in vitro; concentration: 2540 nM top; setting: 60-bp whole probe; added: salmon DNA 0.4 mg/ml; reference: random background probes; reading: higher = stronger binding
Target: Interferon regulatory factor 3, full length, phosphomimetic (IRF3, Homo sapiens, UniProt Q14653, residues 1-427, S386D/S396D/S398D/S402D/T404D/S405D)
Construct (chain): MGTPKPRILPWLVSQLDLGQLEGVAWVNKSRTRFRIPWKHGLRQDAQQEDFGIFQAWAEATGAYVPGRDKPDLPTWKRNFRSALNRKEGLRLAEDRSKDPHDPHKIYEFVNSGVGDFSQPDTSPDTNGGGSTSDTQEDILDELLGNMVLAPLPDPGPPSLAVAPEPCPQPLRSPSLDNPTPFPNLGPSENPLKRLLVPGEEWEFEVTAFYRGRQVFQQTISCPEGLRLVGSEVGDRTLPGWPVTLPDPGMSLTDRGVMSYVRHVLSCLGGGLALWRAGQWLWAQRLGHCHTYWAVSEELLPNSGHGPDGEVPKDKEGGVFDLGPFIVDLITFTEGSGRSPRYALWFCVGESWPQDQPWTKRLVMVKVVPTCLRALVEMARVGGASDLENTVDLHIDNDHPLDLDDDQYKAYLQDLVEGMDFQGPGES
Strand	fitted relative affinity [z-score]
GCCTAGCACGACGAACTGAGACTCGAGACGTGCTAGGTCTTGATTCGCTTGACGCTGCTG	-0.367
GCCTAGCACGACGGTTGCCTTCTCCTGACGTGCTAGGTCTTGATTCGCTTGACGCTGCTG	5.49
GCCTAGCACTTAGGTTTCGGGAATGGGTTAGTGCTAGTCTTGATTCGCTTGACGCTGCTG	3.21
GCCTAGCACTCACATGTAAATAATCAGACTGTGCTAGTCTTGATTCGCTTGACGCTGCTG	-0.027

Set 2 — method: protein binding microarray; molecule type: double-stranded DNA, one strand shown; sample: in vitro; concentration: not given; reference: not given; reading: higher = stronger binding
Target: Histone acetyltransferase KAT6A, winged helix 2, GST fusion (KAT6A, Homo sapiens, UniProt Q92794, residues 85-181)
Setting: 8-mer, flanks averaged, mean of 2 arrays, mostly near background
Residues (chain): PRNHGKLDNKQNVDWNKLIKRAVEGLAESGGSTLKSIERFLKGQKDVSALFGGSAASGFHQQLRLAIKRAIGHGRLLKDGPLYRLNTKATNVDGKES
Strand	E-score
GGTTGCCA	0.0639
CACGGGTA	-0.0898
ACATAACC	-0.106
CGTAACAG	-0.162

Set 3 — method: universal PBM; molecule type: double-stranded DNA, one strand shown; sample: in vitro; concentration: not given; reading: higher = stronger binding
Target: Sal-like protein 4, full length isoform B (SALL4, Homo sapiens, UniProt Q9UJQ4-2, residues 1-616)
Setting: 8-mer, flanks averaged, mean of replicates
Residues (chain): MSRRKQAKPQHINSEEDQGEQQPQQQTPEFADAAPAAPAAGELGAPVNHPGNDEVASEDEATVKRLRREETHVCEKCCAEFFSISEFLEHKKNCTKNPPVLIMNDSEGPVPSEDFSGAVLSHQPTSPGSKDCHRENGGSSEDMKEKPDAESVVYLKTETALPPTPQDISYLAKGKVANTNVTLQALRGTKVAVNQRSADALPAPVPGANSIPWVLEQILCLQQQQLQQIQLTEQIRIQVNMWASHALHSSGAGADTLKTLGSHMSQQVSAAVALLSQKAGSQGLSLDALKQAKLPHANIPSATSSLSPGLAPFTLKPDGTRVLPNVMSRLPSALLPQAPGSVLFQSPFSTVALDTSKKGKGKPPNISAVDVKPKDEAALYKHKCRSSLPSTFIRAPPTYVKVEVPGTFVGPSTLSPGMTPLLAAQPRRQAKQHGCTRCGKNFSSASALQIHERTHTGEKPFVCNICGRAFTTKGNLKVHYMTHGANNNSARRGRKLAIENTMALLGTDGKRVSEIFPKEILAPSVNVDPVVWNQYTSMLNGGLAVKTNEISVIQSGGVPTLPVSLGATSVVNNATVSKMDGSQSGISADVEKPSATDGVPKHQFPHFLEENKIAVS
Strand	E-score
ACATTTCC	0.018
CTGCTTCA	-0.185
CATTGCGC	-0.0848

Other studies, line by line
Substance	target	assay	system	conditions	scale	quantity	result
PhoQ, residues 284 288 289 292 302 303 SVTLVV	PhoP, residues 12 14 15 18 19 LWHVM (Escherichia coli, UniProt P23836)	Sort-seq, measured: YFP reporter	E. coli	PhoQ-PhoP variant library, added: 10 µM Mg2+	reference: high Mg2+ state, higher = stronger signaling	fold induction	10.7

For quick reference, copied from above (set 2):
Strand	E-score
GGTTGCCA	0.0639
